# Published values pooled from the literature.
# Lines come from different studies, so protocols differ. Numbers after ± are the reported error.
# ZTP riboswitch RNA: ZTP riboswitch RNA (Fusobacterium ulcerans)
# T1: RNA G4, parallel dimeric G-quadruplex (Homo sapiens); GGGGCCGGGGCC
# T2: ZTP riboswitch RNA (Fusobacterium ulcerans); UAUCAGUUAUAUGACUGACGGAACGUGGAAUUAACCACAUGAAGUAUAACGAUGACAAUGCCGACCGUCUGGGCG
# T3: dsDNA, self-complementary, T9 linker hairpin; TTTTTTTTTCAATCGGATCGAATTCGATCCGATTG
# T4: TERRA RNA G4, 5-benzofuranyl uridine in one loop (Homo sapiens); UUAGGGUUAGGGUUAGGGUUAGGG
# T5: T-box antiterminator RNA; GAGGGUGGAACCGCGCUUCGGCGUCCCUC
# T6: DNA aptamer 32 nt truncation; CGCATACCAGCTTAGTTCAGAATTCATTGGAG
# T7: dsDNA, abasic THF site, position 11; chain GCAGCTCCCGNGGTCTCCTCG; chain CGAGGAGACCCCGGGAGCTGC
# T8: RNA riboswitch, SAM-II riboswitch; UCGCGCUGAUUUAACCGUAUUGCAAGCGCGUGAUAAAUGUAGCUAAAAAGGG
# T9: DNA aptamer; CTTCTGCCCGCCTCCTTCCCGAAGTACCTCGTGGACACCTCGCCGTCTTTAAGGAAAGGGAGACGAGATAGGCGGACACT
# T10: dsDNA, CGG G:G mismatch, 11-mer duplex; chain CTAACGGAATG; chain CATTCGGTTAG
# Sequence of UniProt P08870 (whole entry, looked up): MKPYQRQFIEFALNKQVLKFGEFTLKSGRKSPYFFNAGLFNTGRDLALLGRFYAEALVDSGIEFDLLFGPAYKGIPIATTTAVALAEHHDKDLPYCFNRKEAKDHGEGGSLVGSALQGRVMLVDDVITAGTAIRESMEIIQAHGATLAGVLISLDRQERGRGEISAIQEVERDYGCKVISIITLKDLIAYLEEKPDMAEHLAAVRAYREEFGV
SMILES,target,test,conditions,Kd [µM]
CC(=O)Cc1cc2c(c(O)c1C(=O)O)-c1c(c(O)c3oc4c(O[C@@H]5OC(C(=O)O)=C[C@H](O)[C@H]5O)cccc4c(=O)c3c1O)CC2,"T1, RNA G4, parallel dimeric G-quadruplex (Homo sapiens)",fluorescence intensity titration,"pH 6.8, KCl 8 mM, one site with Hill slope",3000
NC(=O)c1ncn(-c2ccncc2)c1N,"T2, ZTP riboswitch RNA (Fusobacterium ulcerans)",ITC,"pH 7.4, 37 °C, KCl 150 mM",1
CN1CCN(CCCN2C(=O)c3ccc4c5c(ccc(c35)C2=O)C(=O)N(CCCN2CCN(C)CC2)C4=O)CC1,"T3, dsDNA, self-complementary, T9 linker hairpin",SPR,"KCl 100 mM, two-site fit",17.1
CN(C)c1ccc(Nc2c3ccc(NC(=O)CCN4CCCC4)cc3nc3cc(NC(=O)CCN4CCCC4)ccc23)cc1,"T4, TERRA RNA G4, 5-benzofuranyl uridine in one loop (Homo sapiens)",fluorescence titration,"pH 7.5, 20 °C, KCl 100 mM, apparent, parallel G-quadruplex",0.294
CC(=O)c1ccc(NC(=O)OC[C@@H]2OC(=O)N[C@H]2CN2CCN(c3ccccc3)CC2)cc1,"T5, T-box antiterminator RNA",FRET binding titration,"100 nM, 130 min, pH 6.5, 25 °C, NaCl 50 mM, single-site fit, together with: MgCl2 5 mM",1.6
NC[C@H]1O[C@H](O[C@H]2[C@H](O)[C@@H](O[C@H]3O[C@H](CO)[C@@H](O)[C@H](N)[C@H]3O)[C@H](N)C[C@@H]2N)[C@H](O)[C@@H](O)[C@@H]1O,"T6, DNA aptamer 32 nt truncation",MST,"25 °C, NaCl 100 mM",400
Cc1nc(C(N)=O)c(N)n1CCO,"T2, ZTP riboswitch RNA (Fusobacterium ulcerans)",ITC,"pH 7.4, 37 °C, KCl 150 mM",150
Cc1nc2nc(N)ccc2c(C)c1C,"T7, dsDNA, abasic THF site, position 11",fluorescence titration,"pH 7.0, 20 °C, NaCl 100 mM",0.053
C[S+](CC[C@H](N)C(=O)O)C[C@H]1O[C@@H](n2cnc3c(N)ncnc32)[C@H](O)[C@@H]1O (stereo partly shown),"T8, RNA riboswitch, SAM-II riboswitch",microscale thermophoresis,"pH 7.5, KCl 100 mM, single-site fit",0.138
Nc1ncnc2c1ncn2[C@@H]1O[C@H](COP(=O)(O)OP(=O)(O)OP(O)(O)=S)[C@@H](O)[C@H]1O,"pan (Methanocaldococcus jannaschii, UniProt Q58576)",binding,"25 °C, high-affinity site",~0.493
CC(C)=CCC[C@](C)(O[C@@H]1O[C@H](CO)[C@@H](O)[C@H](O)[C@H]1O)[C@H]1CC[C@]2(C)[C@@H]1[C@H](O)C[C@@H]1[C@@]3(C)CC[C@H](O)C(C)(C)[C@@H]3[C@@H](O[C@@H]3O[C@H](CO)[C@@H](O)[C@H](O)[C@H]3O[C@@H]3O[C@@H](C)[C@H](O)[C@@H](O)[C@H]3O)C[C@]12C,"T9, DNA aptamer",fluorescence of eluted aptamer,"pH 8.5, room temperature",6.7
Cc1ccc2ccc(NC(=O)CCNCCC(=O)Nc3ccc4ccc(C)nc4n3)nc2n1,"T10, dsDNA, CGG G:G mismatch, 11-mer duplex",ITC,"apparent, one-site model",0.391
O=P(O)(O)OP(=O)(O)O,"Orotate phosphoribosyltransferase (pyrE, Salmonella typhimurium, UniProt P08870)",centrifugal filtration,"pH 8.0, wild type, Scatchard extrapolation",960 ± 120
